Results pooled from the literature.
Each line is one published result; not all experiments were run side by side. Numbers after ± are the reported error.
CDK2 with cyclin A2: Cyclin-dependent kinase 2, with cyclin A2 (CDK2, Homo sapiens, UniProt P24941)
UniProt P48426, sequence (whole entry, looked up): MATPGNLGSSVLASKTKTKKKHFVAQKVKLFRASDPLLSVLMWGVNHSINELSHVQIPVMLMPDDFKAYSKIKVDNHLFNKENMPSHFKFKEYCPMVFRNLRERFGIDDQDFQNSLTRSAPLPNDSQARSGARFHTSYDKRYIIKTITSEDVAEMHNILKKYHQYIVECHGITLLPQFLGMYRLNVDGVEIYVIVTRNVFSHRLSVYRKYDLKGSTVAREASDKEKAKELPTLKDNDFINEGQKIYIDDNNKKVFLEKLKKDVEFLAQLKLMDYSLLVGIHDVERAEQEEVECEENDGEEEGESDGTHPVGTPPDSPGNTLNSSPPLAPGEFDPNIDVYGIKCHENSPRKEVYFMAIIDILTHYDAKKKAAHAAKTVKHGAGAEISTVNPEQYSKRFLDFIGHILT
UniProt Q15303, sequence (whole entry, looked up): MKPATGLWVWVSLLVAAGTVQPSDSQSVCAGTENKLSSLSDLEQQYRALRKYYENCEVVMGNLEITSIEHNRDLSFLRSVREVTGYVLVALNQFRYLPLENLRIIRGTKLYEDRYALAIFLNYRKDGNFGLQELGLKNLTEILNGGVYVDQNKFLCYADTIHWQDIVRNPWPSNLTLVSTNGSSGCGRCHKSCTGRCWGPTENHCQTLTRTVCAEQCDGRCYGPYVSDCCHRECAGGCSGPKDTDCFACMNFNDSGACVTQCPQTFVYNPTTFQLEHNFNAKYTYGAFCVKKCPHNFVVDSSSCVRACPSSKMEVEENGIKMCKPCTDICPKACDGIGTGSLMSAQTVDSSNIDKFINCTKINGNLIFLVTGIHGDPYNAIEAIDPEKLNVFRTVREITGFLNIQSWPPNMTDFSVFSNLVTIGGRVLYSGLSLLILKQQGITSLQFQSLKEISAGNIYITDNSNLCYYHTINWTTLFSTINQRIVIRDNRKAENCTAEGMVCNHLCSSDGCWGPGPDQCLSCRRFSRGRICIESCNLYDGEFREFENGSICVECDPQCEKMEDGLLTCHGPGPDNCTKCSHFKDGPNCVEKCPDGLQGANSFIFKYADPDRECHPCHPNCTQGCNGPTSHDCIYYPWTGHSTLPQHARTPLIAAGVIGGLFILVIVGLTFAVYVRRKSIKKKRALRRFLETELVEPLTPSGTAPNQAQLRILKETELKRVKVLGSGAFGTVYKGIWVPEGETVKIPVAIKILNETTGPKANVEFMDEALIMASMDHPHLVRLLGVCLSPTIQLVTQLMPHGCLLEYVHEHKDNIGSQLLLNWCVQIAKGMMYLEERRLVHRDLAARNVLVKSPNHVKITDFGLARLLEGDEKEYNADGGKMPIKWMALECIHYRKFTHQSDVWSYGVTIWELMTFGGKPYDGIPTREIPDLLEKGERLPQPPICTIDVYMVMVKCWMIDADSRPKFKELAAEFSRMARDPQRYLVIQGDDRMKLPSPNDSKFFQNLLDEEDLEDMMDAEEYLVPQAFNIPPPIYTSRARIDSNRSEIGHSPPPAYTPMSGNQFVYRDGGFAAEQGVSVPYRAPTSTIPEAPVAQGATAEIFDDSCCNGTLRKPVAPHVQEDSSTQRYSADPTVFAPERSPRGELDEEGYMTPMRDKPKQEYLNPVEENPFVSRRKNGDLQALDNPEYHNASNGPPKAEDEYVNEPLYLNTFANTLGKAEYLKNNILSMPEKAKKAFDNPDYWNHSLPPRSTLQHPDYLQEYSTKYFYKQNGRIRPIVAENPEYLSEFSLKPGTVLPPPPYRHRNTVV
UniProt P35462, sequence (whole entry, looked up): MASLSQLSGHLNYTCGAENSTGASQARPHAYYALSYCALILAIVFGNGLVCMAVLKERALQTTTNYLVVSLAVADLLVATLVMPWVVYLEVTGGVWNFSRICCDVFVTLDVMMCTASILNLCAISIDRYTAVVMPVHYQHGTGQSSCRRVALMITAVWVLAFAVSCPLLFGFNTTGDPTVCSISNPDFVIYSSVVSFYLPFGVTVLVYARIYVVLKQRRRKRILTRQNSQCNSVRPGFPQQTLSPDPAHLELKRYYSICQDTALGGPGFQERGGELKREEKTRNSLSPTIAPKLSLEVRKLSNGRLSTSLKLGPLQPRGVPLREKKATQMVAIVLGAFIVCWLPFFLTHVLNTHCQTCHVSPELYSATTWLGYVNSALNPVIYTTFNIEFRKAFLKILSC
UniProt Q92626, sequence (whole entry, looked up): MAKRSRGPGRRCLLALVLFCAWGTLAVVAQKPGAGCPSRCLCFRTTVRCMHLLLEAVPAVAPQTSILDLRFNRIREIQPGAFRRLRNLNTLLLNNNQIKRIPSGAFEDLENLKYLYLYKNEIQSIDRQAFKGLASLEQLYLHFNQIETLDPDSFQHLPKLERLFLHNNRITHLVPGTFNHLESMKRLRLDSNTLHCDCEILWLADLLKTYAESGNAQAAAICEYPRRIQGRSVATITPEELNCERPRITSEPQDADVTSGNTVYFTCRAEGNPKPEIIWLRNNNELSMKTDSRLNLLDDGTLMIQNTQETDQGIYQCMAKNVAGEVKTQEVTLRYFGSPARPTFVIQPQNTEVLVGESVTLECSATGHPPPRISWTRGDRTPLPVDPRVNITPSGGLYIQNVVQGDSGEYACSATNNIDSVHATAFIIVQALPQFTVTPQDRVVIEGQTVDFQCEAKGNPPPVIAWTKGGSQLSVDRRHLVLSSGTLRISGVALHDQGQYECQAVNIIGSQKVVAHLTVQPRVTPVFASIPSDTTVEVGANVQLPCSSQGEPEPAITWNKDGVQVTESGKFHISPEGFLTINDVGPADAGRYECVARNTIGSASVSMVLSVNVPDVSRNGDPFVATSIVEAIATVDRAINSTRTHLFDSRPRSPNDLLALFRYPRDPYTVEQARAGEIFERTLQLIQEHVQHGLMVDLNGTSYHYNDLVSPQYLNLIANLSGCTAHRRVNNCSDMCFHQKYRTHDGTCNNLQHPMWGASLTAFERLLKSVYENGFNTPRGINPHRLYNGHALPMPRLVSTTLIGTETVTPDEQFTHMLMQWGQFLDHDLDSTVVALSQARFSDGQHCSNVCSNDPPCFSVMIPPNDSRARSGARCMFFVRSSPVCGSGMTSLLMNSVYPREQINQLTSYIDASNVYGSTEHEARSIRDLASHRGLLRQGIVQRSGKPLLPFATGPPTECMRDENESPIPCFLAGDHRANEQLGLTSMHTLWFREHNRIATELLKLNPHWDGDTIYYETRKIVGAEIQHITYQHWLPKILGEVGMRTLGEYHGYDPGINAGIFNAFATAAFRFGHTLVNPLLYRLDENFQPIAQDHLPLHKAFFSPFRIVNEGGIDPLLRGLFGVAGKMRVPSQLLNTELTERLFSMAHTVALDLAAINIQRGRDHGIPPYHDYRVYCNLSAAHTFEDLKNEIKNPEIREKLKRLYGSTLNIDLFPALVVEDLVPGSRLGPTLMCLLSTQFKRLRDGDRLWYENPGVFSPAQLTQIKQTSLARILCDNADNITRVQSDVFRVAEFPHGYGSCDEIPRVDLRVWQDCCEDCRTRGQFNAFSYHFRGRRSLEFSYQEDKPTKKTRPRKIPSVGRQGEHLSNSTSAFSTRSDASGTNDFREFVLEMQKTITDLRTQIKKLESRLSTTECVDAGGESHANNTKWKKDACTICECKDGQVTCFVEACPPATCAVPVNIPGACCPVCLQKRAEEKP
UniProt P29320, sequence (whole entry, looked up): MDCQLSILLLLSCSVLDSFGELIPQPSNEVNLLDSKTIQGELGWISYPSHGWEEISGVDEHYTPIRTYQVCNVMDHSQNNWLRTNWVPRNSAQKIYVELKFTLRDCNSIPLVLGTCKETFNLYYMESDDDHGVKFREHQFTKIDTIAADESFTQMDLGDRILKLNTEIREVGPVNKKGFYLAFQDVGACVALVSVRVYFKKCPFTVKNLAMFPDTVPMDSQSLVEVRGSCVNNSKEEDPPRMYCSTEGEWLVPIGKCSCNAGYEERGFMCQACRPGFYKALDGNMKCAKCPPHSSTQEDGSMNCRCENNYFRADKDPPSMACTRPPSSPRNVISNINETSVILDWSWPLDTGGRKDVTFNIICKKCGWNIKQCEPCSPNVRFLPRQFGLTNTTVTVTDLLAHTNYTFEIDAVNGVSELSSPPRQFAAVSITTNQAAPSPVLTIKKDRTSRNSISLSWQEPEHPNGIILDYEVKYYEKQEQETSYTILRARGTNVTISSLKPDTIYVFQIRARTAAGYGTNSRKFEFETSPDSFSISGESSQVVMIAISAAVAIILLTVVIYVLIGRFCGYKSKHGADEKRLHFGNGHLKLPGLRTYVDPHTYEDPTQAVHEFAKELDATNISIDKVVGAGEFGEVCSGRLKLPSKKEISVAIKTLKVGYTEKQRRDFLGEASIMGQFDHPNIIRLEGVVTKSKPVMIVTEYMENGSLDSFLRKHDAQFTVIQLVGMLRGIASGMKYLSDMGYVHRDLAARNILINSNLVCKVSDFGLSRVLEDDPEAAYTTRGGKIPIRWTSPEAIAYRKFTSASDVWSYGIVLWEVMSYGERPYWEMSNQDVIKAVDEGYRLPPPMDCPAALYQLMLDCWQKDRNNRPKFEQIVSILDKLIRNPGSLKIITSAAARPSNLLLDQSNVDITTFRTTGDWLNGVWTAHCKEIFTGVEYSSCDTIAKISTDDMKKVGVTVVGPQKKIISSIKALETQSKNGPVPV
UniProt P45984, sequence (whole entry, looked up): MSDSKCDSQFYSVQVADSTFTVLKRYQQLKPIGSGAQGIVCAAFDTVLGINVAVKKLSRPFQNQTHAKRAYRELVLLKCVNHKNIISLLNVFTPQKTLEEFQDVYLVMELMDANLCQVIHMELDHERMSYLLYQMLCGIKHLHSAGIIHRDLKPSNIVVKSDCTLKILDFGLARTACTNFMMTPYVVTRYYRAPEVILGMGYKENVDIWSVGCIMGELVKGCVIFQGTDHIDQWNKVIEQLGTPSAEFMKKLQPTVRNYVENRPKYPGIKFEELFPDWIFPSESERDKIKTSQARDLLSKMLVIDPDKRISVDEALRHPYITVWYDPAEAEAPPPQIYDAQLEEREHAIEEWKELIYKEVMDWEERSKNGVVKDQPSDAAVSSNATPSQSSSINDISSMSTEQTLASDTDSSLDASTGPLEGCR

SMILES | target or system | assay | setting | how to read | endpoint | result
COc1cc(-c2cncc3c2CN(C)Cc2cc(N4CCNCC4)ccc2-3)cc(OC)c1OC | Phosphatidylinositol 4,5-bisphosphate 3-kinase catalytic subunit delta isoform, with p85 alpha (Pik3cd, Mus musculus, UniProt O35904) | kinase activity | 1 µM, p110d/p85a)(m mouse, together with: ATP 10 µM | baseline: DMSO | remaining activity | 94%
CC(=O)Nc1c(N)nc(SCC(=O)NN)[nH]c1=O | CDK2 with cyclin A2 | kinase activity | 100 nM |  | remaining activity | 58.8%
COc1ccc(F)cc1C(=O)NCc1ccc(-c2nn([C@@H](C)C(F)(F)F)c(N)c2C(N)=O)cc1 | ERBB4 (Homo sapiens, UniProt Q15303) | kinase activity, inhibitor, HotSpot radiometric | 1000 nM, together with: ATP at Km |  | remaining activity | 2.6 ± 0.6%
Cc1cc(NC(=O)c2cccc(NC(=O)/C=C/CN(C)C)c2)ccc1Nc1nccc(-c2cccnc2)n1 | MAPK9 (Homo sapiens, UniProt P45984) | enzyme activity, inhibitor | 8.363e-05 µM, unit not given | baseline: vehicle | remaining activity | 1.01
C=CC(=O)N1CCC[C@@H](n2nc(-c3ccc(Oc4ccccc4)cc3)c3c(N)ncnc32)C1 | ITK (Homo sapiens, UniProt Q08881) | kinase activity, inhibitor, HotSpot radiometric | 100 nM, together with: ATP 10 µM |  | remaining activity | 2.3 ± 0.2%
COc1cc(Nc2ncc3c(n2)-c2ccc(Cl)cc2C(c2c(F)cccc2OC)=NC3)ccc1C(=O)O | FGFR4 | kinase activity | 1 µM |  | remaining activity | 79%
CNC(=O)c1cc(Oc2ccc(NC(=O)Nc3ccc(Cl)c(C(F)(F)F)c3)cc2)ccn1 | CDK2 with cyclin A2 | kinase activity | 500 nM |  | remaining activity | 26.1%
CCOC(=O)c1cnc(Nc2nc3ccccc3o2)nc1CN1CCN(c2ccccc2)CC1 | Cyclin-dependent kinase 2, with cyclin A (CDK2, Homo sapiens, UniProt P24941) |  |  |  | Kd | > 100 µM
COc1cc(F)ccc1-c1ncnc(Nc2cccc(C[S@](C)(=N)=O)c2)n1 | PIP4K2A (Homo sapiens, UniProt P48426) | kinase activity | 10 µM, together with: 10 µM ATP |  | remaining activity | 108%
O=C(NC1CCC1)c1ccc2nc(-c3cccc(NS(=O)(=O)NCCN4CCCCC4)c3)cn2c1 | CIT (Homo sapiens, UniProt O14578) | enzyme activity | 10 µM |  | remaining activity | 100%
Cc1cc(Nc2cc(N3CCN(C)CC3)nc(Sc3ccc(NC(=O)C4CC4)cc3)n2)[nH]n1 | MERTK (Homo sapiens, UniProt Q12866) | kinase activity, KinaseProfiler | 0.03 µM, species human | baseline: control | remaining activity | 100%
C=CC(=O)N1CCC[C@@H](n2nc(-c3ccc(Oc4ccccc4)cc3)c3c(N)ncnc32)C1 | EPHA3 (Homo sapiens, UniProt P29320) |  | 1 µM |  | remaining activity | 101%
Cn1cc(-c2ccc(-c3cncc(Cl)c3N3CCC4(CCNC4=O)CC3)cc2)cn1 | COLO 205 | microarray, measured: OXTR | concentration not given, 6 h, gene set OTR | baseline: untreated cells | fold change in expression | -1.43
Cc1ccc(NS(=O)(=O)c2c(C)[nH]c(C)c2C(=O)N2CCC(F)(F)C2)nc1Cl | DRD3 (Homo sapiens, UniProt P35462) | β-arrestin recruitment, antagonist, PathHunter | together with: dopamine EC80 |  | IC50 | > 100 µM
O=C(Cn1nc(-c2cccc([N+](=O)[O-])c2)c2ccccc2c1=O)NCC1CCCO1 (centres unmarked) | CDK2 (Homo sapiens, UniProt P24941) | binding |  |  | Kd | > 100 µM
CNc1ncc2c(/C=C/C(=O)N3CCC(OC)CC3)nn(Cc3cccc(C(F)(F)F)c3)c2n1 | WEE1 (Homo sapiens, UniProt P30291) | kinase activity, inhibitor | 1 µM | baseline: untreated control | remaining activity | 83%
NC/C(=C\F)COc1cccc(Cn2c(=S)[nH]c(=O)c3[nH]cnc32)c1 | Peroxidasin homolog (PXDN, Homo sapiens, UniProt Q92626) | Amplex UltraRed | 2.5 µM, mean of replicates | baseline: control | remaining activity | 86.8%
CC(=O)Nc1c(N)nc(SCC(=O)N/N=C/c2ccc([N+](=O)[O-])cc2)[nH]c1=O | CDK2 with cyclin A2 | kinase activity | 1000 nM |  | remaining activity | 32.8%
O=C(O)c1ccc(Nc2ncc3c(n2)-c2ccc(Cl)cc2C(c2c(F)cccc2F)=NC3)cc1 | human PhKγ2(h) | kinase activity | 1 µM |  | remaining activity | 98%
COc1cc(N2CCN(C)CC2)ccc1Nc1nc(N)n(C(=S)NCc2c(Cl)cccc2Cl)n1 | CDC42BPA (Homo sapiens, UniProt Q5VT25) | enzyme activity | 10 µM | baseline: control | remaining activity | 18%

Repeated from above:
SMILES | target or system | assay | setting | how to read | endpoint | result
C=CC(=O)N1CCC[C@@H](n2nc(-c3ccc(Oc4ccccc4)cc3)c3c(N)ncnc32)C1 | EPHA3 (Homo sapiens, UniProt P29320) |  | 1 µM |  | remaining activity | 101%
CCOC(=O)c1cnc(Nc2nc3ccccc3o2)nc1CN1CCN(c2ccccc2)CC1 | Cyclin-dependent kinase 2, with cyclin A (CDK2, Homo sapiens, UniProt P24941) |  |  |  | Kd | > 100 µM
